Assay results from different studies.
“And” joins repeats or separate records; there may be more than shown. ± marks the error that the study gave.
C3AR1: C3a anaphylatoxin chemotactic receptor (C3AR1, Homo sapiens, UniProt Q16581)
Chain of UniProt Q16581 (whole entry, looked up): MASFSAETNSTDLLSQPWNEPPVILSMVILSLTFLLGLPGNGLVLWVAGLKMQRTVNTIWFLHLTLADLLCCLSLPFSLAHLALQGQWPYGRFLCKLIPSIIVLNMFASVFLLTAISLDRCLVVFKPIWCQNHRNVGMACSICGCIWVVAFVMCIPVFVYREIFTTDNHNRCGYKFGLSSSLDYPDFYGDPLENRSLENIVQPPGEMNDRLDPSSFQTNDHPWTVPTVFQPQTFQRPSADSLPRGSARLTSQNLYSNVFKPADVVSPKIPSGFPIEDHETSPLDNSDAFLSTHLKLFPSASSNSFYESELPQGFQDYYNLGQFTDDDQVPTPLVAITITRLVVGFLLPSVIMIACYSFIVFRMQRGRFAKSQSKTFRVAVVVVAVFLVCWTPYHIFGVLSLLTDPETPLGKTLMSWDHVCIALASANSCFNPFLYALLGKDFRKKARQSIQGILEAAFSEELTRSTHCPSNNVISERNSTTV
ESR1: Estrogen receptor (ESR1, Homo sapiens, UniProt P03372)
Chain of UniProt P03372 (whole entry, looked up): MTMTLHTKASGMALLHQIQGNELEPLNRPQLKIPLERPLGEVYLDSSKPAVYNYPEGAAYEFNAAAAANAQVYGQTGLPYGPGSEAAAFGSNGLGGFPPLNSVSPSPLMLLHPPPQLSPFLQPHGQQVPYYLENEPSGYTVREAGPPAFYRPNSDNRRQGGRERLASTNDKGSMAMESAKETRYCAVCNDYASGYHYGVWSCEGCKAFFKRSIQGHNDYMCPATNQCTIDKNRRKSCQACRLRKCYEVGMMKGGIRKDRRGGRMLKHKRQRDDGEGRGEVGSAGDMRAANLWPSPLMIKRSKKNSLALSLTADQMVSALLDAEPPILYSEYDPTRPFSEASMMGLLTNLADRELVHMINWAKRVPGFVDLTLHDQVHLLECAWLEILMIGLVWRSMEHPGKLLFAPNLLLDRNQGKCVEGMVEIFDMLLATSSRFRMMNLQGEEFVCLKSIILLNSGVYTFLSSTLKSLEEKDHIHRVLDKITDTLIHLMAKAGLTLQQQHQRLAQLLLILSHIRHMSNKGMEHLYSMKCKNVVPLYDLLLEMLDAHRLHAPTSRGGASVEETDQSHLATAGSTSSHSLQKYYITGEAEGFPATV
ADORA1: Adenosine receptor A1 (ADORA1, Homo sapiens, UniProt P30542)
Chain of UniProt P30542 (whole entry, looked up): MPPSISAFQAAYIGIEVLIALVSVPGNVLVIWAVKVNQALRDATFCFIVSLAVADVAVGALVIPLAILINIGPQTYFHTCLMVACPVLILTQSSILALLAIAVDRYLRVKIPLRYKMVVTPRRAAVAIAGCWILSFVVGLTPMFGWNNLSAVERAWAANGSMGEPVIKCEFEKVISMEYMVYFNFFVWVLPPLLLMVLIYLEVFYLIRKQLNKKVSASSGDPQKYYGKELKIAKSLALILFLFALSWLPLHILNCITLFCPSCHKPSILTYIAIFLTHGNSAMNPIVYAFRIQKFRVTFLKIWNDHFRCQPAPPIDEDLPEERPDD
ESR2: Estrogen receptor beta (ESR2, Homo sapiens, UniProt Q92731)
Chain of UniProt Q92731 (whole entry, looked up): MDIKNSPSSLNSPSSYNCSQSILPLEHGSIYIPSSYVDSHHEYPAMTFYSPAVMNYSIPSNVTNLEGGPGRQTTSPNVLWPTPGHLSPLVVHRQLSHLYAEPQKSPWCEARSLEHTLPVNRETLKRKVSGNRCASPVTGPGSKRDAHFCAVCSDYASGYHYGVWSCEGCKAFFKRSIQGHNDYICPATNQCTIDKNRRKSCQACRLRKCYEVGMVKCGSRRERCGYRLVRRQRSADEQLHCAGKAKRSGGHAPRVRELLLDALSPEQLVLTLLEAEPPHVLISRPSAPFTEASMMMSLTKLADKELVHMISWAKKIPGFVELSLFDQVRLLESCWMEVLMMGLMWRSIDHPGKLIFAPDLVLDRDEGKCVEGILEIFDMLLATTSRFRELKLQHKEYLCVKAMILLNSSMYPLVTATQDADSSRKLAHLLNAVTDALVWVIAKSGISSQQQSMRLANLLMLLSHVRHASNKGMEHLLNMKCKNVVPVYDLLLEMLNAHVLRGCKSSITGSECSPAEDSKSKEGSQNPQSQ
MC3R: Melanocortin receptor 3 (MC3R, Homo sapiens, UniProt P41968)
Chain of UniProt Q8NH00 (whole entry, looked up): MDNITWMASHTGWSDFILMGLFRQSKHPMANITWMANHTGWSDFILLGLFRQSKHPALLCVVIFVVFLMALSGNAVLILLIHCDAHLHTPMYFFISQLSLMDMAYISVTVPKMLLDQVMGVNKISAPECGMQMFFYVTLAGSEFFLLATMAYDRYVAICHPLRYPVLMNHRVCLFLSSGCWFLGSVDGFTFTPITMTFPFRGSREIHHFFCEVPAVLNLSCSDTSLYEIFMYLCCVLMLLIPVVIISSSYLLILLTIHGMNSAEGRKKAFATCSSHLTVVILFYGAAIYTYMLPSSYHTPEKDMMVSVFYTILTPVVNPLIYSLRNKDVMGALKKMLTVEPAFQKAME
Chain of UniProt P41968 (whole entry, looked up): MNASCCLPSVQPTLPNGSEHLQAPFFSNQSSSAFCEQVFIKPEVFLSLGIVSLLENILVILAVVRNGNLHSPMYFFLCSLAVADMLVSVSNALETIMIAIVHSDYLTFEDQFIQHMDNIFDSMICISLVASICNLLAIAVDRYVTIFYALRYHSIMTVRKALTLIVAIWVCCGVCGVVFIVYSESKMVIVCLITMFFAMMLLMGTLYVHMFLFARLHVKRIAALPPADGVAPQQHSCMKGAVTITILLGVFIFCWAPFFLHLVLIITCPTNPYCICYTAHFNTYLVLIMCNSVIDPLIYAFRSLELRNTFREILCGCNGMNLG
Chain of UniProt P47870 (whole entry, looked up): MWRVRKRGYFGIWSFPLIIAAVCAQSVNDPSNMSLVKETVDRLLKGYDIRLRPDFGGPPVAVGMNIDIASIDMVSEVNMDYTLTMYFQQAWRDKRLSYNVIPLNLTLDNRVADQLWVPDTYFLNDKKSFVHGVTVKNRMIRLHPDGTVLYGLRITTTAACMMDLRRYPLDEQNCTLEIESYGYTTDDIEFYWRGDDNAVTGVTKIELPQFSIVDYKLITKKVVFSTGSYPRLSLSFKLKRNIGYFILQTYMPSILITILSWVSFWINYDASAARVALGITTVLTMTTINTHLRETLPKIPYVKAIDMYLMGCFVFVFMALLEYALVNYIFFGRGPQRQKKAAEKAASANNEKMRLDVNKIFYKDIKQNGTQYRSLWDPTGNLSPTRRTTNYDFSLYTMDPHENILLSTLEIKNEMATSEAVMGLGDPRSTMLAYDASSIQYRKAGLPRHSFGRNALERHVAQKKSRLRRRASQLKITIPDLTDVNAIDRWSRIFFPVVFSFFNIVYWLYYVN
Chain of UniProt P34972 (whole entry, looked up): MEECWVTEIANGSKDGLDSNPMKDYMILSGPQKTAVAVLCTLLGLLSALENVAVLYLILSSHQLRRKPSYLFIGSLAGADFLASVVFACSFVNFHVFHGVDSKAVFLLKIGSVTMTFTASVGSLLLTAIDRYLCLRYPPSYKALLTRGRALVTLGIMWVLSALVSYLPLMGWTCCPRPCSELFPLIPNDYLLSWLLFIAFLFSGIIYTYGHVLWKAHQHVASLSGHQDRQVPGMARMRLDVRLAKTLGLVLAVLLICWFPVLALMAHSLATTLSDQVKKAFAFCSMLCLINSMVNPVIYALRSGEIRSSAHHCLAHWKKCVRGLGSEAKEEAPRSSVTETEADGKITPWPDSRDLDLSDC
Chain of UniProt Q01726 (whole entry, unmodified, looked up): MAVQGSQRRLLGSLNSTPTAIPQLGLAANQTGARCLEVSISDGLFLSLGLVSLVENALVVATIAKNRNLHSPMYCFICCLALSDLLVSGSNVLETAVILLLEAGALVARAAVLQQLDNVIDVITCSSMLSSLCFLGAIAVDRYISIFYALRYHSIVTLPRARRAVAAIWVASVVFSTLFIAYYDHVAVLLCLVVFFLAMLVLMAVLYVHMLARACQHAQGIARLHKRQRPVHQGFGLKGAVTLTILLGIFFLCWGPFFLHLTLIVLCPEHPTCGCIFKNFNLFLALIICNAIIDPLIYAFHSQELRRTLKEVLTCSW
Chain of UniProt O14764 (whole entry, looked up): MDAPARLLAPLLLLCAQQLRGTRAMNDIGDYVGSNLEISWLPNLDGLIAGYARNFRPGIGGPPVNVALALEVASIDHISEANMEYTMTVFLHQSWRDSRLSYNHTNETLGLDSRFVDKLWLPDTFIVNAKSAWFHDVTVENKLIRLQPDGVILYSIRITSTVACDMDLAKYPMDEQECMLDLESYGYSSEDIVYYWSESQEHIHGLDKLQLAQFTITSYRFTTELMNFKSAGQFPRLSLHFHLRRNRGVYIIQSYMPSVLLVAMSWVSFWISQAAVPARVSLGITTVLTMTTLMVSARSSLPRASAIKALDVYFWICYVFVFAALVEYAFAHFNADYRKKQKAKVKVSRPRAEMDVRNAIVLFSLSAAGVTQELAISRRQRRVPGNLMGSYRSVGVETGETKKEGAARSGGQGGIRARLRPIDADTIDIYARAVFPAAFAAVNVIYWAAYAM
Chain of UniProt P07550 (whole entry, looked up): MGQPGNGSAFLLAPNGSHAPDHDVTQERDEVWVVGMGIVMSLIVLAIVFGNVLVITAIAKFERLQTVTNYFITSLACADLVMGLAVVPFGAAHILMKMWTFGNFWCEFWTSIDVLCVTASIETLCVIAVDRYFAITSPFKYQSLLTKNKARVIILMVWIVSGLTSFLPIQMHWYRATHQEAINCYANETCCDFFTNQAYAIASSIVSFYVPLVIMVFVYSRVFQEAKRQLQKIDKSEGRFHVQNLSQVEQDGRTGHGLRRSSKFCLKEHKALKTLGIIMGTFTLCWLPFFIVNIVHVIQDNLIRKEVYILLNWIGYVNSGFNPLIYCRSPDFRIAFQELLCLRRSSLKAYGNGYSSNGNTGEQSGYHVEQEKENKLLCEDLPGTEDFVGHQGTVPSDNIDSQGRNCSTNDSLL

Compound	target	assay	test system	conditions	EC50
CC(C=O)Cc1ccc(C(C)(C)C)cc1 (centres unmarked)	Olfactory receptor 2T4 (OR2T4, Homo sapiens, UniProt Q8NH00)	GFP reporter gene, agonist	yeast expressing OR2T4	4 h, 1% DMSO	107000 nM and 110000 nM
CC(C)C[C@H](NC(=O)[C@H](C)NC(=O)[C@H](CO)NC(=O)[C@@H]1CCCN1C(=O)[C@@H]1CCCN1C(=O)[C@H](CCC(N)=O)NC(=O)[C@H](CC(C)C)NC(=O)[C@@H](N)[C@@H](C)O)C(=O)N[C@@H](CCCNC(=N)N)C(=O)N[C@@H](CCCNC(=N)N)C(=O)N[C@@H](CCCNC(=N)N)C(=O)N[C@@H](Cc1c[nH]cn1)C(=O)N[C@@H](Cc1ccc(O)cc1)C(=O)N[C@@H](Cc1c[nH]cn1)C(=O)N[C@@H](Cc1c[nH]cn1)C(=O)N[C@@H](C)C(=O)N[C@@H](CC(C)C)C(=O)N1CCC[C@H]1C(=O)N1CCC[C@H]1C(=O)N[C@@H](CO)C(=O)N[C@@H](CCCNC(=N)N)C(=O)O	C3AR1	G protein activation, agonist, BRET	–	–	416 nM
CC(C)C[C@H](NC(=O)[C@H](CC(C)C)NC(=O)[C@@H](Cc1ccc2ccccc2c1)NC(=O)[C@H](Cc1ccccc1)NC(=O)[C@@H](Cc1c[nH]c2ccccc12)NC(=O)[C@@H](N)CCCCN)C(N)=O	GHSR (Homo sapiens, UniProt Q92847)	inositol phosphate, agonist, TR-FRET	–	–	229 nM
CCCC[C@H](NC(=O)[C@H](CO)NC(=O)[C@H](Cc1ccc(O)cc1)NC(=O)[C@H](CO)NC(C)=O)C(=O)N[C@@H](CCC(=O)O)C(=O)N[C@@H](Cc1c[nH]cn1)C(=O)N[C@H](Cc1ccc2ccccc2c1)C(=O)N[C@@H](CCCNC(=N)N)C(=O)N[C@@H](Cc1c[nH]c2ccccc12)C(=O)NCC(=O)N[C@@H](CCCCN)C(=O)N1CCC[C@H]1C(=O)N[C@H](C(=O)NCC(=O)N[C@@H](CCCCN)C(=O)N[C@@H](CCCCN)C(=O)N[C@@H](CCCNC(=N)N)C(N)=O)C(C)C	MC1R (Homo sapiens, UniProt Q01726, M128L)	cAMP, agonist	–	–	> 1000 nM
CC(C)C[C@H](NC(=O)[C@H](C)NC(=O)[C@H](CO)NC(=O)[C@@H]1CCCN1C(=O)[C@@H]1CCCN1C(=O)[C@H](CCC(N)=O)NC(=O)[C@H](CC(C)C)NC(=O)[C@@H](N)[C@@H](C)O)C(=O)N[C@@H](CCCNC(=N)N)C(=O)N[C@@H](CCCNC(=N)N)C(=O)N[C@@H](CCCNC(=N)N)C(=O)N[C@@H](Cc1c[nH]cn1)C(=O)N[C@@H](Cc1ccc(O)cc1)C(=O)N[C@@H](Cc1c[nH]cn1)C(=O)N[C@@H](Cc1c[nH]cn1)C(=O)N[C@@H](C)C(=O)N[C@@H](CC(C)C)C(=O)N1CCC[C@H]1C(=O)N1CCC[C@H]1C(=O)N[C@@H](CO)C(=O)N[C@@H](CCCNC(=N)N)C(=O)O	C3AR1	β-arrestin recruitment, agonist	–	–	16900 nM
CC(C)C[C@@H]1NC(=O)[C@H](CCCNC(=N)N)NC(=O)[C@H](C(C)C)NC(=O)[C@H](Cc2c[nH]cn2)NC(=O)[C@H](Cc2c[nH]cn2)NC(=O)CNC(=O)[C@H](CCCCN)NC(=O)[C@H](CC(C)C)NC(=O)[C@H](CC(N)=O)NC(=O)[C@H]([C@@H](C)O)NC(=O)[C@H](CO)NC(=O)[C@H](CC(N)=O)NC(=O)[C@@H]2CCCN2C(=O)[C@H](CO)NC(=O)[C@@H]2CCCN2C(=O)[C@H](C(C)C)NC(=O)[C@H](CCCNC(=N)N)NC(=O)[C@H](Cc2c[nH]cn2)NC(=O)[C@@H]2CSSC[C@H](NC1=O)C(=O)N[C@@H](CCCCN)C(=O)N1CCC[C@H]1C(=O)N[C@H](C(=O)N[C@@H](CCCCN)C(=O)N[C@@H](CC(C)C)C(=O)N[C@@H](CCC(=O)O)C(=O)N1CCC[C@H]1C(=O)N[C@@H](CCC(=O)O)C(=O)N1CCC[C@H]1C(=O)N[C@@H](CCCNC(=N)N)C(=O)N[C@@H](CC(C)C)C(=O)N[C@@H](Cc1c[nH]c3ccccc13)C(=O)N[C@H](C(=O)N[C@H](C(=O)N1CCC[C@H]1C(=O)NCC(=O)N[C@@H](C)C(=O)N[C@@H](CC(C)C)C(=O)N1CCC[C@H]1C(=O)N[C@@H](CCC(N)=O)C(=O)N[C@H](C(=O)O)C(C)C)C(C)C)C(C)C)CSSC[C@H](NC(=O)[C@H](CC(C)C)NC(=O)[C@H](CCCNC(=N)N)NC(=O)[C@@H](NC(=O)[C@H](CCCNC(=N)N)NC(=O)[C@H](CCCNC(=N)N)NC(=O)CNC(=O)[C@H](CO)NC(=O)[C@H](Cc1c[nH]c3ccccc13)NC(=O)[C@H](C)NC(=O)[C@H](CCCCN)NC(=O)[C@H](C)NC(=O)[C@@H]1CCCN1C(=O)[C@H](CCCNC(=N)N)NC(=O)[C@H](CCCNC(=N)N)NC(=O)[C@@H](N)CCCCN)[C@@H](C)O)C(=O)N2	G-protein coupled receptor 15, with GoA (Homo sapiens, UniProt P49685)	GoA activation, agonist, BRET	HEK293A transfected GPR15	–	52.5 nM
CC1(C)O[C@@H]2[C@H](O1)[C@H]1COP(=O)([O-])OP(=O)(O)OC[C@H]3O[C@H]([C@H](O)[C@@H]3O)[n+]3cnc4c(ncn4[C@@H]2O1)c3N	cADPR receptor, sea urchin	Ca2+ release, agonist	sea urchin egg homogenate	–	12000 nM
COc1cc(-c2cnc3nc2NCCCNS(=O)(=O)c2cc(ccc2OC)N3)ccc1F	FLT1 (Homo sapiens, UniProt P17948)	target engagement in cells, BRET	–	–	42000 nM
O=S(=O)(Oc1ccc(Cl)cc1)C1CC2OC1C(c1ccc(O)cc1)=C2c1ccc(O)cc1 (racemic)	ESR1	reporter gene, agonist, luciferase	–	–	360 nM
CCCn1c(=O)c2[nH]c(-c3ccc(OCC(=O)NCCNS(=O)(=O)c4cccc5c(N(C)C)cccc45)cc3)nc2n(CCC)c1=O	ADORA1	reporter gene, agonist	–	–	145 nM
O=C(CN1C(=O)c2ccccc2C1=O)c1ccc(O)cc1O	ESR2	coactivator recruitment, agonist	–	–	1560 nM
C=C(c1ncc(C(=O)O)cn1)c1cc2c(cc1C)C(C)(C)CCC2(C)C	RXRA (Homo sapiens, UniProt P19793)	reporter gene, agonist, mammalian two-hybrid	HCT-116, transfected	24 h	44 nM
N#CC(=CC(=O)c1ccccc1)c1ccc(O)cc1	ESR1	coactivator recruitment, agonist	–	–	6740 nM
O=C(Nc1c(-c2cccs2)nc2ccccn12)c1ccc(Cl)cc1	Gamma-aminobutyric acid receptor subunit alpha-1/beta-2/delta (Homo sapiens, UniProt O14764+P14867+P47870)	positive allosteric modulator, FLIPR membrane potential	HEK293 Flp-In	with: GABA EC20	2970 nM
N=C(N)NCCC[C@H](NC(=O)[C@H](CC(=O)O)NC(=O)[C@@H]1CSCC(=O)NCC(=O)N[C@@H](Cc2c[nH]cn2)C(=O)N[C@H](Cc2ccccc2)C(=O)N[C@@H](CCCNC(=N)N)C(=O)N[C@H](Cc2c[nH]c3ccccc23)C(=O)N1)C(=O)N[C@@H](Cc1ccccc1)C(=O)NCC(N)=O	MC3R	cAMP, agonist	–	–	> 1000 nM
CCCn1c(=O)c2[nH]c(-c3ccc(OCC(=O)NCCNC(=O)CCCCCNS(=O)(=O)c4ccc(C5=c6cc7c8c(c6Oc6c5cc5c9c6CCCN9CCC5)CCC[N+]=8CCC7)c(S(=O)(=O)[O-])c4)cc3)nc2n(CCC)c1=O	ADORA1	reporter gene, agonist	–	–	1510 nM
CN(Cc1ccccc1F)C(=O)c1ccc(O)cc1	ESR2	coactivator recruitment, agonist	–	–	19300 nM
N=C(N)NCCC[C@H](NC(=O)[C@H](CC(=O)O)NC(=O)[C@@H]1CSCCCC(=O)NCC(=O)N[C@@H](Cc2c[nH]cn2)C(=O)N[C@H](Cc2ccccc2)C(=O)N[C@@H](CCCNC(=N)N)C(=O)N[C@@H](Cc2c[nH]c3ccccc23)C(=O)N1)C(=O)N[C@@H](Cc1ccccc1)C(=O)NCC(N)=O	MC3R	cAMP, agonist	–	–	100 nM
CC(C)C[C@H](NC(=O)CNC(=O)[C@H](CC(C)C)NC(=O)[C@H](CCCCN)NC(=O)[C@H](CO)NC(=O)[C@H](C)NC(=O)[C@H](CCCN=C(N)N)NC(=O)[C@H](Cc1ccc(O)cc1)NC(=O)[C@H](CCCCN)NC(=O)[C@H](CCCCN)NC(=O)CNC(=O)[C@H](Cc1c[nH]c2ccccc12)NC(=O)[C@@H](N)Cc1c[nH]c2ccccc12)C(=O)N[C@@H](C)C(=O)N[C@@H](CCCN=C(N)N)C(=O)O	C3AR1	β-arrestin2 recruitment, agonist, BRET	–	60 min, 37 °C, with: GRK2 co-expression	5.3 nM
CSCC[C@H](NC(=O)CNC(=O)[C@H](CCCCN)NC(=O)[C@@H](N)Cc1c[nH]c2ccccc12)C(=O)N[C@H](C(=O)N[C@H](CCSC)C(N)=O)C(C)C	FPR1 (Homo sapiens, UniProt P21462)	binding, competitor	U-937	4 °C, with: 5 nM WK(FL)YMVm	> 6700 nM
CCNC(=O)[C@H]1O[C@@H](n2cnc3c(NCCCCCNC(=O)CCCCCNC(=O)COc4ccc(/C=C/C5=[N+]6C(=Cc7ccc(-c8cccs8)n7[B-]6(F)F)C=C5)cc4)ncnc32)[C@H](O)[C@@H]1O	ADORA1	CRE-SPAP reporter gene, agonist	CHO-A1	Gs enhancement, with: forskolin, pertussis toxin 100 ng/mL overnight	263 nM
O=C1C[C@H](c2nc(-c3ccc(F)c4cn[nH]c34)no2)CCCN1c1ccc(F)cc1 (racemic)	CNR2 (Homo sapiens, UniProt P34972)	cAMP, agonist, luciferase	–	–	26.5 nM
CC/C(=C(\c1ccccc1)c1ccc(OCCN(C)CCCCCCC(=O)NCCc2c[nH]c3ccc(OC)cc23)cc1)c1ccccc1	MTNR1A (Homo sapiens, UniProt P48039)	phosphorylation in cells, agonist, AlphaScreen	–	–	308 nM
CCCC[C@H](NC=O)C(=O)N[C@@H](CC(C)C)C(=O)N[C@@H](Cc1ccccc1)C(=O)O	FPR1 (Homo sapiens, UniProt P21462, N192K)	receptor surface downregulation, agonist	CHO cells	1 h, 37 °C	75 ± 5 nM
O=C(O)CN(CC(=O)O)[C@@H](CCCCNC(=O)CCCC(=O)NCCOCCOCCOCCOCCC(=O)NCCCNCC(O)c1cccc(O)c1)C(=O)O (some centres unmarked)	ADRB2 (Homo sapiens, UniProt P07550)	calcium response, agonist	HEK-293T with Gα15	–	1300 nM
CC(C)C[C@H](NC(=O)[C@@H](N)[C@@H](C)O)C(=O)N[C@@H](CCC(N)=O)C(=O)N1CCC[C@H]1C(=O)N1CCC[C@H]1C(=O)N[C@@H](C)C(=O)N[C@@H](CO)C(=O)N[C@@H](CO)C(=O)N[C@@H](CCCNC(=N)N)C(=O)N[C@@H](CCCNC(=N)N)C(=O)N[C@@H](CCCNC(=N)N)C(=O)N[C@@H](Cc1c[nH]cn1)C(=O)N[C@@H](Cc1ccccc1)C(=O)N[C@@H](Cc1c[nH]cn1)C(=O)N[C@@H](Cc1c[nH]cn1)C(=O)N[C@@H](C)C(=O)N[C@@H](CC(C)C)C(=O)N1CCC[C@H]1C(=O)N1CCC[C@H]1C(=O)N[C@@H](C)C(=O)N[C@@H](CCCNC(=N)N)C(=O)O	C3AR1	cAMP, agonist, luciferase	–	–	10.4 nM
